Experimental data gathered from unrelated publications.
Numbered parts are unrelated; each lists some results of a single study. Values joined by “and” are separate records of one study, mostly repeats; a detail may differ.

Block 1
Organism: Sarcocystis neurona
Read-out: parasite growth
Tested at: 10 µM
Time: 96 h
Setting: second screen
Reference: untreated
Quantity: log2 fold change
Compound = Cc1ccc(-c2nc3ccc(C)cn3c2CC(=O)N(C)C)cc1; value = 2.12
Compound = C[C@]12Cc3c[nH]nc3C[C@@H]1CC[C@@H]1[C@@H]2CC[C@@]2(C)[C@H]1CC[C@]2(C)O; value = -0.0662
Compound = CC(C)CC(N(C)C)C1(c2ccc(Cl)cc2)CCC1 (centres unmarked); value = 0.47
Compound = CC(C)/N=c1\cc2n(-c3ccc(Cl)cc3)c3ccccc3nc-2cc1Nc1ccc(Cl)cc1; value = -4.3
Compound = C[C@]12CCC(=O)C[C@@H]1CC[C@@H]1[C@@H]2CC[C@@]2(C)[C@H]1CC[C@]2(C)O; value = -0.0036
Compound = CNC1=Nc2ccc(Cl)cc2C(c2ccccc2)=[N+]([O-])C1; value = 0.27
Compound = CCOC(=O)C1(c2ccccc2)CCN(CCC(C#N)(c2ccccc2)c2ccccc2)CC1; value = 0.0334

Block 2
Cell line: HEK-293T/ACE2
Method: Hoechst nuclei count
Tested at: concentration not given
Time: 16 (unit not given)
Reference: vehicle
Quantity: viability
Structure (SMILES) = NC(=O)c1cn(Cc2c(F)cccc2F)nn1; value = 107%
Structure (SMILES) = CN(C)CCc1c[nH]c2ccc(Cn3cncn3)cc12; value = 99.5%
Structure (SMILES) = COC(=O)N[C@H](C(=O)N[C@@H](Cc1ccccc1)[C@@H](O)CN(Cc1ccc(-c2ccccn2)cc1)NC(=O)[C@@H](NC(=O)OC)C(C)(C)C)C(C)(C)C; value = 97.1%
Structure (SMILES) = O=[N+]([O-])O[C@H]1CO[C@H]2[C@@H]1OC[C@H]2O[N+](=O)[O-]; value = 101%
Structure (SMILES) = O=c1[nH]cnc2c1ncn2[C@H]1CC[C@@H](CO)O1; value = 107%
Structure (SMILES) = CN(C)C/C=C/C(=O)Nc1cc2c(Nc3ccc(F)c(Cl)c3)ncnc2cc1O[C@H]1CCOC1; value = 87.9%
Structure (SMILES) = C#C[C@]1(O)CC[C@H]2[C@@H]3CCC4=Cc5oncc5C[C@]4(C)[C@H]3CC[C@@]21C; value = 97%
Structure (SMILES) = C[C@@H](c1ncncc1F)[C@](O)(Cn1cncn1)c1ccc(F)cc1F; value = 98.2%
Structure (SMILES) = CC(=O)OCC(=O)[C@H]1CC[C@H]2[C@@H]3CCC4=CC(=O)CC[C@]4(C)[C@H]3CC[C@]12C; value = 103%
Structure (SMILES) = CC[C@]1(O)C[C@@H]2CN(CCc3c([nH]c4ccccc34)[C@@](C(=O)OC)(c3cc4c(cc3OC)N(C)[C@H]3[C@@](O)(C(=O)OC)[C@H](OC(C)=O)[C@]5(CC)C=CCN6CC[C@]43[C@@H]65)C2)C1; value = 0.77%

Block 3
Cell line: A-375
Tested at: 100 µM
Time: 36 h
Quantity: viability
Compound = Cc1c(N)nc([C@H](CC(N)=O)NC[C@H](N)C(N)=O)nc1C(=O)N[C@H](C(=O)N[C@H](C)[C@@H](O)[C@H](C)C(=O)N[C@H](C(=O)NCCc1nc(-c2nc(C(=O)NCCC[S+](C)C)cs2)cs1)[C@@H](C)O)[C@@H](O[C@@H]1O[C@@H](CO)[C@@H](O)[C@H](O)[C@@H]1O[C@H]1O[C@H](CO)[C@@H](O)[C@H](OC(N)=O)[C@@H]1O)c1c[nH]cn1; value = 28.6%
Compound = CCCC(C)(COC(N)=O)COC(=O)NC(C)C (centres unmarked); value = 85%
Compound = CCOC(=O)CC(SP(=S)(OC)OC)C(=O)OCC (centres unmarked); value = 58.4%
Compound = NCC1(CC(=O)O)CCCCC1; value = 109%
Compound = CC(C)C[C@H](CN)CC(=O)O; value = 124%
Compound = Nc1ccncc1; value = 102%
Compound = CCN1C[C@]2(OC(=O)c3ccccc3NC(C)=O)CC[C@H](OC)[C@@]34[C@@H]2C[C@@H]([C@@H]13)[C@@]1(O)C[C@H](OC)[C@H]2C[C@@H]4[C@]1(O)[C@H]2OC; value = 98.8%

Block 4
SMILES: [N-]=[N+]=CC(=O)CC[C@H](N)C(=O)O
Species: C57BL/6 CES1-/- mouse, both sexes
Route: intravenous
Dose: 1 mg/kg
Quantity: body weight
time = day 17; value = 68% and 70% and 78%
time = day 7; value = 100%
time = day 15; value = 78% and 77% and 74% and 85% and 80% and 82%
time = day 14; value = 83% and 80% and 74% and 82% and 85% and 87% and 73%
time = day 9; value = 96% and 100% and 97%

Some of these lines once more (block 3):
Compound = CC(C)C[C@H](CN)CC(=O)O; value = 124%
Compound = Nc1ccncc1; value = 102%
Compound = CCN1C[C@]2(OC(=O)c3ccccc3NC(C)=O)CC[C@H](OC)[C@@]34[C@@H]2C[C@@H]([C@@H]13)[C@@]1(O)C[C@H](OC)[C@H]2C[C@@H]4[C@]1(O)[C@H]2OC; value = 98.8%
